# Measurements pooled from the literature.
# Parts stem from different laboratories: compare values within a part only.

# Series 1 — technique: RNA Bind-n-Seq; molecule type: RNA; sample: in vitro; tested at: 1 µM; setting: whole 134-nt RNA, ends assumed; together with: 150 mM KCl; baseline: input library; reading: higher = stronger binding
# Target: Ras GTPase-activating protein-binding protein 1, RRM domain (G3BP1, Homo sapiens, UniProt Q13283)
# Chain of UniProt Q13283 (whole entry, looked up): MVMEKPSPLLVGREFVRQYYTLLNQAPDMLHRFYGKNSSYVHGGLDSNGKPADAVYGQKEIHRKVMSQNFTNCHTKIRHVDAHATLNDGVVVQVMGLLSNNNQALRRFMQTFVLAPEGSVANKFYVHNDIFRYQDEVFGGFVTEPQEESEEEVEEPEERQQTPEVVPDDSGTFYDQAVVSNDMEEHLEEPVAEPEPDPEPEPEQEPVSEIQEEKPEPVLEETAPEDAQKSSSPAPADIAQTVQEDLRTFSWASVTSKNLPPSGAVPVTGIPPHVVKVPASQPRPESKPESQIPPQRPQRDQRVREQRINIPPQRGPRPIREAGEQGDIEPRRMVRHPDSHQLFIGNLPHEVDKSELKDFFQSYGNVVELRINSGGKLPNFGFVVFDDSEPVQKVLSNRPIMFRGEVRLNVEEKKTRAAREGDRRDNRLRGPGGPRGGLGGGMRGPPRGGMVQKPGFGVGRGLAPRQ
# Constant ends, left off below: GGGAGUUCUACAGUCCGACGAUC … UGGAAUUCUCGGGUGUCAAGG
Sequence,log2 enrichment
CCUCAAGUCCUGUGCUACACAUCGUAUGUACCGAAUCGGCGGCGGGGCGGGGAAAGUAUUAUGUUACGCCGUUCGGAUCUGCACUUCCAG,-0.211
UGGCUAGUCAGCAGCGGAUGUCCCCUCCAGGUUAAGAAAGCCGAACCAGAGCCGAUGCGAGAGGAGGAGAAAAUGAUUCCUCCUACGAAA,-0.0636
AGUCCUGUGCUACACAUCGUAUGUACCGAAUCGGAAAAAAAGGAAAAAGGAAAAAGGAAAGUAUUAUGUUACGCCGUUCGGAUCUGCACU,0.0116
AGUCCUGUGCUACACAUCGUAUGUACCGAAUCGGGAAAGGGAAAAAAAGGGUUUGGGAAAGUAUUAUGUUACGCCGUUCGGAUCUGCACU,0.247
CUCAAGUCCUGUGCUACACAUCGUAUGUACCGAAUCGGGAAAGGAAAGGAAAGGAAAGUAUUAUGUUACGCCGUUCGGAUCUGCACUUCC,-0.232
CAAGUCCUGUGCUACACAUCGUAUGUACCGAAUCGGGUGGGUUUUUGGGUUUGGGAAAGUAUUAUGUUACGCCGUUCGGAUCUGCACUUC,0.46
CUCAAGUCCUGUGCUACACAUCGUAUGUACCGAAUCGGAAAGGAAAGGAAAGGAAAGUAUUAUGUUACGCCGUUCGGAUCUGCACUUCCA,-0.262
UCAAGUCCUGUGCUACACAUCGUAUGUACCGAAUCGGGAAAGGGUGGGAAAGGGAAAGUAUUAUGUUACGCCGUUCGGAUCUGCACUUCC,0.811
CUCAAGUCCUGUGCUACACAUCGUAUGUACCGAAUCGGGGAGGGGAGGGAGGGGAAAGUAUUAUGUUACGCCGUUCGGAUCUGCACUUCC,1.09
AGUCCUGUGCUACACAUCGUAUGUACCGAAUCGGGGUUUGGGGUGGGGUUUUUGGGGAAAGUAUUAUGUUACGCCGUUCGGAUCUGCACU,0.614
UUUGAUGACAGUCUGCAGGAGCUGCCUGGUGAAGUACCUGGAGGAGAACAACACCUGCCCCACCUGCAGGAUUGUGAUCCACCAGAGCCA,-0.297
CAAGUCCUGUGCUACACAUCGUAUGUACCGAAUCGGUUUUUUUGGUUUUUGGUGGAAAGUAUUAUGUUACGCCGUUCGGAUCUGCACUUC,-0.406
CUCAAGUCCUGUGCUACACAUCGUAUGUACCGAAUCGGUUGGGGUUGGGUUGGAAAGUAUUAUGUUACGCCGUUCGGAUCUGCACUUCCA,-0.284
UAACUUUAGAGGAGGAUCUGAUGGAUAUGUCAGUGGACGUGGAUUUGGGGAUGGCUAUAAUGGGUAUGGAGGAGGACCUGGAGGUGGCAA,-0.793

# Series 2 — technique: RNA Bind-n-Seq; molecule type: RNA; sample: in vitro; tested at: not given; setting: RNA with constant flanks, ends assumed; baseline: input RNA pool; reading: higher = stronger binding
# Target: RING finger protein unkempt homolog, zinc fingers 1-6, GST-SBP tag (UNK, Homo sapiens, UniProt Q9C0B0, residues 30-357)
# Chain of UniProt Q9C0B0 (30-357, looked up): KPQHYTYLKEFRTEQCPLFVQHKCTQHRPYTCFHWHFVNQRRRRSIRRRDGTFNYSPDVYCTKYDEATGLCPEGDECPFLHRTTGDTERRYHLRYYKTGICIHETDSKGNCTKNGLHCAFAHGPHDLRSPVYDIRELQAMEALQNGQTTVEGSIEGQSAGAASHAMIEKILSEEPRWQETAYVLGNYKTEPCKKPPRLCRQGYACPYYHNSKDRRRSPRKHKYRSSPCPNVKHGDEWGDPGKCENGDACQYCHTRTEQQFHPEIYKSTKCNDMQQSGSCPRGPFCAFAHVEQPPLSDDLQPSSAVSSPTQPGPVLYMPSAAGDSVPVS
# Constant ends, left off below: GGGAGUUCUACAGUCCGACGAUC … CAACAGAGGAUUGAGCAUCA
Sequence,bound/input enrichment
UUUUCCUUCAACCCCAAGCUGGAUAAGGAAGAACGGGAGCAGGGCUGGUUGCUGGUUGACCUCCGUGAAGAAUACAAGCGAAUGGGCCUCCCUGAUAAUUAUUGGCAGCUCAGCGAUGUG,0.134 ratio
GACUUUGGAACUGGUCCUCGUAAUGCAGCCUACUAUAGCCCUCAUGGACAUAUAUCCGUAUCCGCUGGAUUUGGAAAUCUGAGGGGACAAAUGGAAGUGUGGGAUGUGAAAAACUACAAA,0.0898 ratio
ACCCCUGCUUUGUACAUGCUGUCUCCCUUCAGUCCUCUCAGAAGAAUAUCUAUUAAGAUUUCCGUGCACUCCUUAUUCAGCAUGCUAAUCAUGUGCACAAUUCUGACAAACUGCAUAUUC,0.188 ratio
GAAAAAUUAUCUAGGCCUGAUCUCAAACGGCAGAAUCUACUGUAAUCAAAUCAAUGACUUUUUCCGACACAUUUUAUAAAAAUGCAGCACAUGUAGUGUUGCCCCCCACCCAAUCUGUAU,0.629 ratio
GGUGUGCCAGCUCUGACGCAGAACCUACCAAGGAUACUCAGAAAAGAACGCCCUAUAUCAUCCGGAAUUUUCCCAUUACCUGCUGGAGAUGGAUUGCUUACACCUGAUGCUCAGAAAGGA,0.198 ratio
GACCAAAGUUUUUGAUCAUAUGUUUUGAGAUAAUUGUAUGAUCAAGUUGUAUAUUUAAGUCUCCGUGUUUGAAAUUGCAGUUAUAAUUGUUCAUAGGAUUGCUAUUUAAGAUGAUUUGAA,0.369 ratio
UUGUGCAGAGCCCAACAUGAGCUUCAUUUCCAAGCUGCCACCUAUCUCUGCCUCCUGCGCCGCAUCCGGAAACAUGUGGCCCUACAUCAGGAAUUUCAUGGCAAGGGAGAUACAACUCGU,0.0827 ratio
CCCUUUGGCGGACCUUUUGAUGUGAGUAGAUGUUUUCUAGGAUAAAAUUUAAGGACUAAUUUCCGACUUAAAACAUUCCACUUUUGUAAGUUGUUUUCAGUGGUCUUAUGUAGAGCAAGC,1.6 ratio
AAAUUUAAAAAUUCUUUCUGUUGUACAGAAUUAAAUGAAGAAAUCAAACAGUCUCAUUCUUUCCGUUUACAGACACCUUGUUCAAAAGGUAGUGAAUUAAGAAUGAUUAAUAAAAAUCCU,0.344 ratio
UUGCUGAUGACUUCUUGUGGCAUUUCACACUGUAGAUGGUCACUGCCUCUCAUGUCCAUGUCCGCUAAUGGUGUAAGAUGAUGUCUUGUCAGUAUUACUGUUUUGCUAAGCUGCUUCAUU,0.119 ratio
CAUGGCGGCCGCCCCGGAGCCCCACGAGACGGAGAAAAAGCCCUUCAAGCUCCUAGGUAUUUCCGAUGUUGAGAACACUCCAUGUGCUCGAGAAUCUAUACUCUAUGGCUCAUUAGGAUC,0.29 ratio

# Series 3 — technique: RNA Bind-n-Seq; molecule type: RNA; sample: in vitro; tested at: 365 nM; baseline: no-protein control; reading: higher = stronger binding
# Target: RNA binding protein fox-1 homolog 2, RRM domain, GST-SBP tag (RBFOX2, Homo sapiens, UniProt O43251-10, residues 100-194)
# Setting: natural RNA segment, single round, ends assumed
# Constant ends, left off below: GGGAGUUCUACAGUCCGACGAUC … UGGAAUUCUCGGGUGCCAA
# Residues (chain): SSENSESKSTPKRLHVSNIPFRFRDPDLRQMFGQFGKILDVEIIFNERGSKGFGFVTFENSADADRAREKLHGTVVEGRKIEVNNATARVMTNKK
Sequence,RBNS enrichment (R)
GCGCCAUCAUGGGCUGAUUUUUAUUACCAGGUCCCCCAGAAGCAGGUGGGAGGCUCUGCUUCCUGCUGCCGCUCUGCAGCCUGGACCUGUGGACCCUGGUUGUAAAGAGU,0.184
GGACCCCAGGCUCUGCUCUGCCCUGCCCUGCACCCCCCUCGUCAGAAGUACAUGAGGGGCGCAGAGAUGAGCACACAGCUUUGGGCACGGUCCAGGGCAAACUGAAAUGU,0.332
GAAAUGAAAUUAAAUGAGAUUACAGCAUAAUGAAGAAGAAAACUAGAAUCUAACAGGUAUGACACAUUCAGUUAUUCUAACAGGGCACAGUACUGUGCUAUAUGUAGCCG,1.26
CUUAUUUUCUCUUGGAACAUAUCUGAAAACCUUCCCCACAAAUAACUUGUCACACCUUUUGUUUCAUUCUGAGUCUUUAGUUUUAGUCAUGGGCUUUCUUCACCUGCUCU,0.821
GGGUUUUCCUACGUAGGAUGAAAAGAUUCUUCUGUGUUUAUAAAAUAUAAACAAAGAUUCAUGAUUUAUAAAUGCCAUUUAUUUAUUGAUUCCUUUUUUCAAAAUCCAAA,1.21
AGGGAAGAGAAGAGGGAGGGACUCACUCUUUAGAACCAGGAAGAUAAUUGACUUAGUGAAAGACAGCUUCCCCUCUGUUUAGGUUCUCAGAUAUGUCCAGAGCAAAUUAG,0.73
UUAAGGAACAGCCAUAACCCUCCGAAUGAUUGCAUUAAUUUCUGACCGCCCUCAGCCCGUUGGAAGCUUGGUUUAGAGGACUUGUUGGGCUCAUUUUGGUUUUAUUGAAA,1.12
GGCACAUAGAACAUUGCUAUCCAUGCAGCCUUUGGGCCCCAGGGAACGGUCACCCUGUAAAGUGCUCAGAGUCGGAGUCCAGCACCUCCCCCAGUGGUGGCAGCUGUUCC,0.276
GUCACCCUGGGCCUCAGUGAAGAAUUAGGGCCCGCGCUGCACAGGAAAGUUCCCUUUGGUCCACAGGGCCAUUUCAAGCAAGUUCAAUGACCUGGUCCCUUAGAGCUCCA,0.396
AUCUGCACGUGACUGGCAUUUUAAAACAACUCAUUAAAUAUUGGAUUCAUUUUAUCGAGAUGCCAAGAUGAACACAAUGUGAAUAUCAUUUCCAUUUCUAAGCAGUUGAA,1.34
AGUUGUUCAUGGAAUUGAUGGGGGAGGUAGAGGGGGUCCUCUAACAAAUAUGUCUGGUGGUGAAUGUGAAAGCUUUCCAUGAGAUGCCAAAGACCCUACAUCGAAUUUCC,0.334
UGUUGUGGUAGGCAGUCCUGUGCAUUUUAGAAUGUUUGGCAUUAUCUCUGGCCUCCCCCACAAGAUGCCAGUAGCAAUCUUCUUCCCGAAGCUGUGACAAUCAGAAAUGU,0.47

# Series 4 — technique: protein binding microarray; molecule type: double-stranded DNA, one strand shown; sample: in vitro; tested at: not given; baseline: not given; reading: higher = stronger binding
# Target: Histone acetyltransferase KAT6A, winged helix 1, GST fusion (KAT6A, Homo sapiens, UniProt Q92794, residues 1-85)
# Setting: 8-mer, flanks averaged, mean of 2 arrays, mostly near background
# Target sequence (chain): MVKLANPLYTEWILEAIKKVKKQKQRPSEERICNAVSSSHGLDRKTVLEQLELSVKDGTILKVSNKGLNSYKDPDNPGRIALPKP
Sequence,E-score
CATTCATA,0.0245
GCTAATTA,0.0536
ATGGAGTG,-0.116
ACCTCTCC,0.109
CGCAGGGC,0.189
CTGTAAAC,-0.0657
ACGCGTAT,0.283
CAGAGTTA,-0.13
AGGTAACA,-0.211
CACAATAG,-0.0595
CTGACAAG,-0.106
CTCTTGGC,-0.0635
ATTCTCCC,-0.229
CCCTTTGA,-0.133
GATCTTTA,-0.00883
CAGCCTAA,-0.191
GCTCCAAA,-0.17

# Excerpt of the above (series 2):
Sequence,bound/input enrichment
ACCCCUGCUUUGUACAUGCUGUCUCCCUUCAGUCCUCUCAGAAGAAUAUCUAUUAAGAUUUCCGUGCACUCCUUAUUCAGCAUGCUAAUCAUGUGCACAAUUCUGACAAACUGCAUAUUC,0.188 ratio
GAAAAAUUAUCUAGGCCUGAUCUCAAACGGCAGAAUCUACUGUAAUCAAAUCAAUGACUUUUUCCGACACAUUUUAUAAAAAUGCAGCACAUGUAGUGUUGCCCCCCACCCAAUCUGUAU,0.629 ratio
GGUGUGCCAGCUCUGACGCAGAACCUACCAAGGAUACUCAGAAAAGAACGCCCUAUAUCAUCCGGAAUUUUCCCAUUACCUGCUGGAGAUGGAUUGCUUACACCUGAUGCUCAGAAAGGA,0.198 ratio
GACCAAAGUUUUUGAUCAUAUGUUUUGAGAUAAUUGUAUGAUCAAGUUGUAUAUUUAAGUCUCCGUGUUUGAAAUUGCAGUUAUAAUUGUUCAUAGGAUUGCUAUUUAAGAUGAUUUGAA,0.369 ratio
UUGUGCAGAGCCCAACAUGAGCUUCAUUUCCAAGCUGCCACCUAUCUCUGCCUCCUGCGCCGCAUCCGGAAACAUGUGGCCCUACAUCAGGAAUUUCAUGGCAAGGGAGAUACAACUCGU,0.0827 ratio
CCCUUUGGCGGACCUUUUGAUGUGAGUAGAUGUUUUCUAGGAUAAAAUUUAAGGACUAAUUUCCGACUUAAAACAUUCCACUUUUGUAAGUUGUUUUCAGUGGUCUUAUGUAGAGCAAGC,1.6 ratio
